{"sequences": {"note": "Amino acid sequences for entries named in this document (tags omitted). Chains listed by the source or under a name are the forms on record and can include a tag or linker. Residues count along the entry.", "UniProt Q16762, whole entry": "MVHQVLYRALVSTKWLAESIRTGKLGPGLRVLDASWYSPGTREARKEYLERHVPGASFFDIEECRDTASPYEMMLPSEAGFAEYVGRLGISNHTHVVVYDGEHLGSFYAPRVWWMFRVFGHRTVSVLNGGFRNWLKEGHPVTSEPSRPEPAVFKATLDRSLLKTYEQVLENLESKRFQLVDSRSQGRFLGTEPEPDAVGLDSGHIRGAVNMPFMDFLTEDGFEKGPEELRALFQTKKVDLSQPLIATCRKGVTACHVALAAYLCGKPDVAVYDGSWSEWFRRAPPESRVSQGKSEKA", "UniProt P08510, 1-655 with tags or gaps DEL6-46": "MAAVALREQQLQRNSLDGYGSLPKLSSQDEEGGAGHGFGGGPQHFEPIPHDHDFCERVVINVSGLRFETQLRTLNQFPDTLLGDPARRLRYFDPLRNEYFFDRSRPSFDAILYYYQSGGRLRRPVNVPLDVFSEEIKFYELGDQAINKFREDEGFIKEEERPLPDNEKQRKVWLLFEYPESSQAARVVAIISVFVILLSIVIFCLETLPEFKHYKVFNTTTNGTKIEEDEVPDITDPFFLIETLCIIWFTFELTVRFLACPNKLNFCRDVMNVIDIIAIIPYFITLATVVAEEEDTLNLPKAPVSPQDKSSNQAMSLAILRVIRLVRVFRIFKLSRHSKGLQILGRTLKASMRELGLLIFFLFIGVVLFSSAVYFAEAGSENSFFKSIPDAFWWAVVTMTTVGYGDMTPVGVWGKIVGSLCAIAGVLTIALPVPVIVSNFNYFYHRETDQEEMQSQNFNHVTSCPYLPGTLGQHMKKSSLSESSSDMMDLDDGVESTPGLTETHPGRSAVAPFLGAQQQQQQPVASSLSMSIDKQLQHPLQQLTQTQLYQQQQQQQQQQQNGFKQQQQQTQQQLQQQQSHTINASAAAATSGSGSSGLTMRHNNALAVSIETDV"}, "data": "Published values gathered from unrelated publications", "dfrA": "Dihydrofolate reductase (dfrA, Bacillus anthracis, UniProt Q81R22)", "Lethal factor": "Lethal factor (Bacillus anthracis, UniProt P15917)", "note": "Numbers after ± are the reported error."}
{"SMILES": "CCC1(C2OC(C3OC(O)(CO)C(C)CC3C)CC2C)CCC(C2(C)CCC3(CC(O)C(C)C(C(C)C(OC)C(C)C(=O)O)O3)O2)O1 (stereo not drawn)", "target": "N/L (Lymphocytic choriomeningitis virus, UniProt P09992+P14240)", "test": "viral replication, Gaussia luciferase reporter", "quantity": "EC50", "result": "190 nM"}
{"SMILES": "COc1cc(Cc2cnc(N)nc2N)cc(/C=C/C(=O)N2N=Cc3ccccc3[C@@H]2C=C(C)C)c1OC", "target": "dfrA", "test": "inhibitor", "quantity": "Ki", "result": "4.4 nM"}
{"SMILES": "O=C(/C=C/c1ccc(O)cc1)/C(C(=O)Nc1ccccc1)=C(O)/C=C/c1ccc(O)cc1", "target": "Lethal factor", "test": "enzyme activity, non-competitive inhibitor", "conditions": "apparent", "quantity": "Ki", "result": "34500 nM"}
{"SMILES": "Cc1ccc(OCCN(C)C)cc1C(=O)N[C@H](C)c1cc(-c2cnn(CCO)c2)cc(-c2cnn(CCO)c2)c1", "target": "Replicase polyprotein 1ab, papain-like protease (rep, Severe acute respiratory syndrome coronavirus 2, UniProt P0DTD1)", "test": "protease activity, inhibitor", "test system": "FlipGFP reporter cells", "quantity": "EC50", "result": "> 10000 nM"}
{"SMILES": "O=C(NCc1ccccc1)C(N[C@@H]1CCSC1=O)C1CC1 (single isomer, unassigned)", "target": "TST (Homo sapiens, UniProt Q16762)", "test": "enzyme activity, activator, cyanide to thiocyanate conversion", "quantity": "EC50", "result": "2300 ± 4200 nM"}
{"SMILES": "CC[C@H](C)[C@H](NC(=O)[C@H](C)NC(=O)[C@H](CCC(=O)O)NC(=O)[C@H](CCC(=O)O)NC(=O)[C@H](CC(C)C)NC(=O)[C@H](CCCCN)NC(=O)[C@H](CCCCN)NC(=O)[C@H](CCSC)NC(=O)[C@H](CCC(=O)O)NC(=O)[C@H](Cc1ccc(O)cc1)NC(=O)[C@H](CCC(=O)O)NC(=O)[C@H](CC(C)C)NC(=O)[C@H](CC(=O)O)NC(=O)[C@H](CC(C)C)NC(=O)[C@H](Cc1ccccc1)NC(=O)[C@@H](NC(=O)[C@@H](NC(=O)[C@H](CC(N)=O)NC(=O)[C@@H](NC(=O)[C@H](CCC(N)=O)NC(=O)[C@H](CC(=O)O)NC(=O)[C@H](CC(C)C)NC(=O)[C@@H](N)CO)[C@@H](C)CC)C(C)C)[C@@H](C)O)C(=O)N[C@@H](CCCCN)C(=O)N[C@@H](CCCCN)C(=O)N[C@@H](CC(C)C)C(=O)N[C@@H](CCC(=O)O)C(=O)N[C@@H](CCC(=O)O)C(=O)N[C@@H](C)C(=O)N[C@@H](Cc1ccc(O)cc1)C(=O)N[C@H](C(=O)N[C@@H](CC(=O)O)C(=O)N[C@@H](CC(C)C)C(=O)N[C@@H](CCCCN)C(=O)N[C@@H](CCC(=O)O)C(=O)N[C@@H](CC(C)C)C(=O)O)[C@@H](C)CC", "target": "Spike glycoprotein (MERS-CoV, UniProt K9N5Q8)", "test": "cell-cell fusion, inhibitor, luciferase fusion", "test system": "293T donor, Huh-7 target", "conditions": "16 h, 37 °C", "quantity": "IC50", "result": "824 nM"}
{"SMILES": "COc1cc(Cc2cnc(N)nc2N)cc(/C=C/C(=O)N2N=Cc3ccccc3C2CC(C)C)c1OC (racemic)", "target": "dfrA", "test": "inhibitor", "quantity": "Ki", "result": "6.9 nM"}
{"SMILES": "O=C(O)C(O)=CC(=O)c1ccc2cc(O)c(O)cc2c1", "target": "Nucleoprotein, exonuclease domain (N, Machupo virus, UniProt P26578)", "test": "inhibitor", "quantity": "IC50", "result": "5420 ± 460 nM"}
{"SMILES": "CC[C@H](C)[C@@H]1NC(=O)[C@H](CCCNC(=N)N)NC(=O)[C@@H](N)CSSC[C@@H]2NC(=O)[C@@H]3CSSC[C@@H](C(=O)N[C@H](C(=O)O)C(C)C)NC(=O)[C@H](CCCCN)NC(=O)[C@H](CC(N)=O)NC(=O)[C@H](Cc4ccccc4)NC(=O)[C@H](CCCNC(=N)N)NC(=O)[C@H](CC(N)=O)NC(=O)[C@H](CSSC[C@H](NC(=O)[C@H](CCCCN)NC(=O)[C@H](CCC(N)=O)NC(=O)[C@H](CC(N)=O)NC(=O)[C@@H]4C[C@@H](O)CN4C1=O)C(=O)N[C@@H](Cc1ccccc1)C(=O)N[C@@H](CCC(N)=O)C(=O)N[C@@H](Cc1c[nH]cn1)C(=O)N[C@@H](CC(C)C)C(=O)N[C@@H](CC(=O)O)C(=O)N[C@@H](CC(=O)O)C(=O)N3)NC(=O)[C@H](CCCCN)NC(=O)[C@H](CCCNC(=N)N)NC(=O)[C@H](CO)NC2=O", "target": "Sh (Drosophila melanogaster, UniProt P08510, del6-46)", "test": "potassium current, two-electrode voltage clamp", "test system": "Xenopus oocytes", "conditions": "external K 100 mM, zero voltage", "quantity": "Kd", "result": "610 ± 100 nM"}
{"SMILES": "COc1cc(Cc2cnc(N)nc2N)cc(/C=C/C(=O)N2N=Cc3ccccc3C2C(C)C)c1OC (racemic)", "target": "dfrA", "test": "inhibitor", "quantity": "Ki", "result": "13.2 nM"}
{"SMILES": "CN1C(=O)CCc2cc(C(=O)NCC=CS(C)(=O)=O)ccc21", "target": "Polyprotein P1234, nsP2 protease (Chikungunya virus, UniProt Q5XXP4)", "test": "time-dependent inhibition", "quantity": "Ki", "result": "2200 ± 400 nM"}
{"SMILES": "Cc1cc(S(=O)(=O)N[C@@H](C(=O)NO)C2CCOCC2)ccc1F (single isomer, unassigned)", "target": "Lethal factor", "test": "enzyme activity, inhibitor", "quantity": "Ki", "result": "46 nM"}
{"note": "Some of these lines once more:"}
{"SMILES": "CCC1(C2OC(C3OC(O)(CO)C(C)CC3C)CC2C)CCC(C2(C)CCC3(CC(O)C(C)C(C(C)C(OC)C(C)C(=O)O)O3)O2)O1 (stereo not drawn)", "target": "N/L (Lymphocytic choriomeningitis virus, UniProt P09992+P14240)", "test": "viral replication, Gaussia luciferase reporter", "quantity": "EC50", "result": "190 nM"}
{"SMILES": "COc1cc(Cc2cnc(N)nc2N)cc(/C=C/C(=O)N2N=Cc3ccccc3[C@@H]2C=C(C)C)c1OC", "target": "dfrA", "test": "inhibitor", "quantity": "Ki", "result": "4.4 nM"}
